Measured values gathered from unrelated publications.
Every numbered part comes from another study and shows a few of its results, in no order. pEC50: −log10 of the molar value.
Sequence of UniProt P48729 (whole entry, looked up): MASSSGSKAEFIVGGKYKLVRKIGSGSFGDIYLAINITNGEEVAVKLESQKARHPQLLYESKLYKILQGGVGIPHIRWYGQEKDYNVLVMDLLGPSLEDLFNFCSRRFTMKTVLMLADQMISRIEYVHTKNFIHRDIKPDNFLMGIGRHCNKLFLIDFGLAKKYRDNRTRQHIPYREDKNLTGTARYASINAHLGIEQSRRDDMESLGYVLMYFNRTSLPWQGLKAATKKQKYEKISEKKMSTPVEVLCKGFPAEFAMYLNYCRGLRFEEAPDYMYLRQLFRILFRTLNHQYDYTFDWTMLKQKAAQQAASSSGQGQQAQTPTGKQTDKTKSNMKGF
Sequence of UniProt Q13976 (whole entry, looked up): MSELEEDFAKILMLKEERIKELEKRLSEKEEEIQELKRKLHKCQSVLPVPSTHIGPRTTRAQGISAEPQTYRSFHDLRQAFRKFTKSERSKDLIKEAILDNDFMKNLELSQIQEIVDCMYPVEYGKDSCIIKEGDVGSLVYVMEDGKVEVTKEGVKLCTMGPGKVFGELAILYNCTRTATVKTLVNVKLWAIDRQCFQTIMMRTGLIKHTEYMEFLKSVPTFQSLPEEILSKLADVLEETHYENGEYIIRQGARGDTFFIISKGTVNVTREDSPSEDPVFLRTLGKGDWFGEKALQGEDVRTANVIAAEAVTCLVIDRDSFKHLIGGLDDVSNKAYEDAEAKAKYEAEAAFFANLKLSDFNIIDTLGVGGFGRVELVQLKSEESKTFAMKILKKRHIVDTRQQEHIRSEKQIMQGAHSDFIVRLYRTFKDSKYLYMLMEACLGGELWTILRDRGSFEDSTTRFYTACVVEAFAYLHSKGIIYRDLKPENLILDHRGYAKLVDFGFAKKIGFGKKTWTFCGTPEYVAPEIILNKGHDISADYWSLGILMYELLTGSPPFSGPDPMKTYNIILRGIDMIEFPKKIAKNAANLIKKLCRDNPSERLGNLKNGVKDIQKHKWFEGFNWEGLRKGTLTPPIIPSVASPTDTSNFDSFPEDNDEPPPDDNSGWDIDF
Sequence of UniProt Q9Y3S1 (whole entry, looked up): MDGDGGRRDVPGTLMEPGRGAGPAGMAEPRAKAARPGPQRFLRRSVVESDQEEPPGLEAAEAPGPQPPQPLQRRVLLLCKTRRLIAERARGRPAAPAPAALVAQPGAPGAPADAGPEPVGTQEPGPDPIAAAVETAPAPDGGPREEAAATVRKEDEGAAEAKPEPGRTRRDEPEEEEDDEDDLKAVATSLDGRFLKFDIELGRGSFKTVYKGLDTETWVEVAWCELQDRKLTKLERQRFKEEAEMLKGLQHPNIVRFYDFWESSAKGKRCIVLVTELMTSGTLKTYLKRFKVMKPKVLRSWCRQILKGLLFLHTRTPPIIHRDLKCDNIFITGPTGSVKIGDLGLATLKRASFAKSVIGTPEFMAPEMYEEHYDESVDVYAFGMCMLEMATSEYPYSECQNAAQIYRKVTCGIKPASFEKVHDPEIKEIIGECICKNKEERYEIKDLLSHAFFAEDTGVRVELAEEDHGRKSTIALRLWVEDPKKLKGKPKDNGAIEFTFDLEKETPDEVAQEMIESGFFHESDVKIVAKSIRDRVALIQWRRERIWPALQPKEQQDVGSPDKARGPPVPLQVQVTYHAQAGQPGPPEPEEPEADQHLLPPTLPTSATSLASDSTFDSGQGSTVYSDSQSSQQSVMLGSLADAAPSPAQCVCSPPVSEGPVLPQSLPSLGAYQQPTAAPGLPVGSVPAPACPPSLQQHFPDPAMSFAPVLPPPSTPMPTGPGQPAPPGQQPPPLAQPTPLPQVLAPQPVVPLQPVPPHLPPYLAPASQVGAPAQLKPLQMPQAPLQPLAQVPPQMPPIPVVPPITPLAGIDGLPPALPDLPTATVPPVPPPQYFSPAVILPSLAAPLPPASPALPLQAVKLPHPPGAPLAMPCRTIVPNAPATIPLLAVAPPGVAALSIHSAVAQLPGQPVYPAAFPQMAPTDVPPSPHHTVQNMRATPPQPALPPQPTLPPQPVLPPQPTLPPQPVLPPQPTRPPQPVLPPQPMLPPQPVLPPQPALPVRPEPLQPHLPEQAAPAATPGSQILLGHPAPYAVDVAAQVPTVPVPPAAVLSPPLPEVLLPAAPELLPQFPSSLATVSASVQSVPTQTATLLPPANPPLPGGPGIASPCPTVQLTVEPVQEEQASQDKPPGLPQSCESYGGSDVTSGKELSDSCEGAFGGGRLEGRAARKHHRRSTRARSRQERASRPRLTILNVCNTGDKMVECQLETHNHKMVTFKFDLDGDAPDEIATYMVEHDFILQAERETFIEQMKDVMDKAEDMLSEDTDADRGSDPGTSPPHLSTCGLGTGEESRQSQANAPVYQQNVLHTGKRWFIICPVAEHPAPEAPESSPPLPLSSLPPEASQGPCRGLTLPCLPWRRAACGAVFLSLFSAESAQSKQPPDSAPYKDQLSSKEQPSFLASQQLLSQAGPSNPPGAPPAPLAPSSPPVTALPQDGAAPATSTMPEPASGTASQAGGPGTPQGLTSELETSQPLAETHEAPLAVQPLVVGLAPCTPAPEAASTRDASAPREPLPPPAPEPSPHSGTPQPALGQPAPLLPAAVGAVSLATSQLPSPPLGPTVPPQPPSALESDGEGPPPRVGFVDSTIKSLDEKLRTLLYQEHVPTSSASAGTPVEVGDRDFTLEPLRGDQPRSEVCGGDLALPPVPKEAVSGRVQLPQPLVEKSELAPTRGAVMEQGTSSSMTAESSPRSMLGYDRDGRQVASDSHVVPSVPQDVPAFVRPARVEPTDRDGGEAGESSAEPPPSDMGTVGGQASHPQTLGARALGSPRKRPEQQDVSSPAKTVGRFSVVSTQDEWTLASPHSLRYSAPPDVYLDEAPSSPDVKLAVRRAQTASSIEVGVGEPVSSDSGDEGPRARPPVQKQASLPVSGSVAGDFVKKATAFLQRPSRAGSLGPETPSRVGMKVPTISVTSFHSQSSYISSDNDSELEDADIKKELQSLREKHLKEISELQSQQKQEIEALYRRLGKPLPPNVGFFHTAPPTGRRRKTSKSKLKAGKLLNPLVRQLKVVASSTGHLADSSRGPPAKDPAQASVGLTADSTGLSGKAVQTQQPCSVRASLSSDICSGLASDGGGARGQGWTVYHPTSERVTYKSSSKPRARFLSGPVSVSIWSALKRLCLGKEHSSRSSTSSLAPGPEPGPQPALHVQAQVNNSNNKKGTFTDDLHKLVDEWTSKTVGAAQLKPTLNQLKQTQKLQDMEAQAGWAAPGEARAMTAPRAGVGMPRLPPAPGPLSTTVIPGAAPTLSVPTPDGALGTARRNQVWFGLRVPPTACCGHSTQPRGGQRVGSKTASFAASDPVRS
Sequence of UniProt P07948 (whole entry, looked up): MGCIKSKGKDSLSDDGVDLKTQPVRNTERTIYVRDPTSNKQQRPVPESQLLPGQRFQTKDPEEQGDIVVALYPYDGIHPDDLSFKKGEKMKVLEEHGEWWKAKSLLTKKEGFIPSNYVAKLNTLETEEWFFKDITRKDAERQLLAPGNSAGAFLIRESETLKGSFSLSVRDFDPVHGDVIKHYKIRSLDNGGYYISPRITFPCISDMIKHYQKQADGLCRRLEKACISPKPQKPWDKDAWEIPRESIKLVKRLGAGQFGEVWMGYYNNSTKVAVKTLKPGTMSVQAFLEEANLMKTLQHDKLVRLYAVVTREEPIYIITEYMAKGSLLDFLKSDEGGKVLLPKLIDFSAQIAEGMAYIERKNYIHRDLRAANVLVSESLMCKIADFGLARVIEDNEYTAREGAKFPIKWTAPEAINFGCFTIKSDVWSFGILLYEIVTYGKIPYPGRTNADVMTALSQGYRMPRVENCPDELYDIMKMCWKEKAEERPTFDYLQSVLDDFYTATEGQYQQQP
Sequence of UniProt Q15208 (whole entry, looked up): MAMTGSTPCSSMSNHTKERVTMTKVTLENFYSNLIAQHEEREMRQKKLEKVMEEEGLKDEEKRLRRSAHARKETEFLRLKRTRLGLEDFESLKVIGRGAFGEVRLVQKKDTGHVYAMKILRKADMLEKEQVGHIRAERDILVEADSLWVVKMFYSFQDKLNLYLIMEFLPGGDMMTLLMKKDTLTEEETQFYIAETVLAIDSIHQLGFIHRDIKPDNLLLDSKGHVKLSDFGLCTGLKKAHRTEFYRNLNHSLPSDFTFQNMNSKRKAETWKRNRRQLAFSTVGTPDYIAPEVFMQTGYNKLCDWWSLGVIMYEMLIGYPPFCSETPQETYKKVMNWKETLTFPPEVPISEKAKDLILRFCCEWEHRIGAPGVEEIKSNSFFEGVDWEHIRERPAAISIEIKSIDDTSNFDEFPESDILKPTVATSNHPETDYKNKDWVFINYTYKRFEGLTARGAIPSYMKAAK

Set 1
SMILES: Oc1cccc(-c2nc(N3CCOCC3)c3oc4ncccc4c3n2)c1
Read-out: enzyme activity
Action: inhibitor
Tested at: 0.5 µM
Reference: control
Measurement: remaining activity
target = PRKG1 (Homo sapiens, UniProt Q13976); result = 96.3%
target = WNK2 (Homo sapiens, UniProt Q9Y3S1); result = 119%
target = MAPK13 (Homo sapiens, UniProt O15264); result = 97.4%
target = CSNK1A1 (Homo sapiens, UniProt P48729); result = 87.9%
target = NEK4 (Homo sapiens, UniProt P51957); result = 90.4%
target = STK38 (Homo sapiens, UniProt Q15208); result = 99%
target = MKNK2 (Homo sapiens, UniProt Q9HBH9); result = 92.6%
target = LYN (Homo sapiens, UniProt P07948); result = 102%

Set 2
Target: Beta-1 adrenergic receptor (ADRB1, Homo sapiens, UniProt P08588)
Sequence of UniProt P08588 (whole entry, looked up): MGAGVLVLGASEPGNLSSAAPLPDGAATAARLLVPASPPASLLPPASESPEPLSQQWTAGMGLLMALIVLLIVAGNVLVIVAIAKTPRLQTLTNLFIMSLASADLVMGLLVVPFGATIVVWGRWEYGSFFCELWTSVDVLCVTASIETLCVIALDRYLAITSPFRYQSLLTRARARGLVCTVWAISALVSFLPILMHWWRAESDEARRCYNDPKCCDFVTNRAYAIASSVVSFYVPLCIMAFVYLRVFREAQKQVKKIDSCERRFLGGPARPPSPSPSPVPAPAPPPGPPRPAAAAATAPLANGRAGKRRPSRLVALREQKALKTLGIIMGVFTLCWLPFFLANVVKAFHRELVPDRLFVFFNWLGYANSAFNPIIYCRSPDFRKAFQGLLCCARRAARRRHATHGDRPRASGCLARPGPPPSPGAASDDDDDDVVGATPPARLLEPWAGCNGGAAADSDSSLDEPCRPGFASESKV
Action: agonist
Measurement: pEC50
Structure (SMILES) = CCN1CCN(Cc2ccc(Nc3ncc(F)c(-c4cc(F)c5nc(C)n(C(C)C)c5c4)n3)nc2)CC1; result = ≤ 4.00
Structure (SMILES) = OC(c1ccc2c(c1)CCO2)c1nc(Nc2ccccc2)n[nH]1 (stereo not shown); result = ≤ 4.00
Structure (SMILES) = CCN1C(=O)COC[C@@H]1[C@H](O)c1ccc(NC(=O)CCc2ccccc2)cc1; result = ≤ 4.00
Structure (SMILES) = CN(C)c1ccc(CNC2(Cc3cc(-c4cccc(O)c4)on3)COC2)cc1; result = ≤ 4.00
Structure (SMILES) = Clc1cccc(N2CCN(C3CCNCC3)CC2)c1; result = ≤ 4.00
Structure (SMILES) = c1ccc(-n2ncc3c(N4CCNc5ccccc5C4)ncnc32)cc1; result = ≤ 4.00
Structure (SMILES) = CC1CCN(Cc2ccccc2OCC(O)CN2CCSCC2)CC1 (stereo not shown); result = ≤ 4.00
Structure (SMILES) = CN1C(=O)COC[C@@H]1[C@H](O)c1ccc(NC(=O)Cc2ccccc2)cc1; result = ≤ 4.00

Set 3
Organism: Sarcocystis neurona
Read-out: parasite growth
Tested at: 10 µM
Time: 96 h
Setting: first screen
Reference: untreated
Measurement: log2 fold change
Structure (SMILES) = CN(C)[C@@H]1C(O)=C(C(=O)NCN2CCCC2)C(=O)[C@@]2(O)C(O)=C3C(=O)c4c(O)cccc4[C@@](C)(O)[C@H]3C[C@@H]12; result = 0.09
Structure (SMILES) = CN1CCN(C2=Nc3cc(F)ccc3Cc3ccccc32)CC1; result = -0.16
Structure (SMILES) = CS(=O)(=O)c1ccc(C2=C(c3ccccc3)C(=O)OC2)cc1; result = -0.0125
Structure (SMILES) = CNS(=O)(=O)Cc1ccc2[nH]cc(CCN(C)C)c2c1; result = 0.0093
Structure (SMILES) = COc1cc(NC(C)CCCN)c2ncccc2c1 (stereo not shown); result = -5.9
Structure (SMILES) = CCOC(=O)O[C@]1(C(=O)OCCl)CC[C@H]2[C@@H]3CCC4=CC(=O)C=C[C@]4(C)[C@H]3[C@@H](O)C[C@@]21C; result = -0.0738
Structure (SMILES) = Cc1ccc(O)c([C@H](CCN(C(C)C)C(C)C)c2ccccc2)c1; result = -0.19
Structure (SMILES) = S=c1[nH]cnc2nc[nH]c12; result = -1.48

Mixed results
Structure (SMILES) = CC(C)(C)c1nc(-c2cccc(NS(=O)(=O)c3c(F)cccc3F)c2F)c(-c2ccnc(N)n2)s1; cell line = L929; assay = necroptosis protection, CCK-8; conditions = 3.125 µM, with: TNF-α-induced; measurement = viability; result = 29.2%

For quick reference, copied from above (set 1):
target = MAPK13 (Homo sapiens, UniProt O15264); result = 97.4%
target = CSNK1A1 (Homo sapiens, UniProt P48729); result = 87.9%
target = NEK4 (Homo sapiens, UniProt P51957); result = 90.4%
